Experimental data collected from several papers.
Parts stem from different laboratories: compare values within a part only. ± gives the spread as reported.
Sequence of UniProt P31751 (whole entry, looked up): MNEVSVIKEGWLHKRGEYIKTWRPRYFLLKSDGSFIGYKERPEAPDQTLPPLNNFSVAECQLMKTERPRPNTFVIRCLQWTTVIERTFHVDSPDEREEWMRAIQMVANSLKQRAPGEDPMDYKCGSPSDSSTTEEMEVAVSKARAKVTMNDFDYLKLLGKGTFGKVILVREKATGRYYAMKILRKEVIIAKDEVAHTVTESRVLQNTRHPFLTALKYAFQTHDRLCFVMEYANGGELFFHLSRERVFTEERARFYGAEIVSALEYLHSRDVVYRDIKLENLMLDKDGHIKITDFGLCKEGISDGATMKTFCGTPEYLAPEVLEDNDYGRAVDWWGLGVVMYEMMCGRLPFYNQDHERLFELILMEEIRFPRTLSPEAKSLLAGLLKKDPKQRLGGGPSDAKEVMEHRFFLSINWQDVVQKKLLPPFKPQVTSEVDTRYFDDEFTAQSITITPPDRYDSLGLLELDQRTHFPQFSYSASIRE
Sequence of UniProt P51817 (whole entry, looked up): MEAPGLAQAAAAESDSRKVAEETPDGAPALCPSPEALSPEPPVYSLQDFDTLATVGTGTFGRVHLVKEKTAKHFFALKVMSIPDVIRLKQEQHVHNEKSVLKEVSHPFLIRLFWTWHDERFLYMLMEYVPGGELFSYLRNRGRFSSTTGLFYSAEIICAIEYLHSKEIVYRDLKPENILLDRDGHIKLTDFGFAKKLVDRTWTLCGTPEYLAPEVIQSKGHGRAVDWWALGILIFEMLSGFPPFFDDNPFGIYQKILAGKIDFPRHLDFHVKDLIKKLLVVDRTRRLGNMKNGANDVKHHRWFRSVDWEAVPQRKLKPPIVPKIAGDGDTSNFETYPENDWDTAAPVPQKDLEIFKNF
Sequence of UniProt P29323 (whole entry, looked up): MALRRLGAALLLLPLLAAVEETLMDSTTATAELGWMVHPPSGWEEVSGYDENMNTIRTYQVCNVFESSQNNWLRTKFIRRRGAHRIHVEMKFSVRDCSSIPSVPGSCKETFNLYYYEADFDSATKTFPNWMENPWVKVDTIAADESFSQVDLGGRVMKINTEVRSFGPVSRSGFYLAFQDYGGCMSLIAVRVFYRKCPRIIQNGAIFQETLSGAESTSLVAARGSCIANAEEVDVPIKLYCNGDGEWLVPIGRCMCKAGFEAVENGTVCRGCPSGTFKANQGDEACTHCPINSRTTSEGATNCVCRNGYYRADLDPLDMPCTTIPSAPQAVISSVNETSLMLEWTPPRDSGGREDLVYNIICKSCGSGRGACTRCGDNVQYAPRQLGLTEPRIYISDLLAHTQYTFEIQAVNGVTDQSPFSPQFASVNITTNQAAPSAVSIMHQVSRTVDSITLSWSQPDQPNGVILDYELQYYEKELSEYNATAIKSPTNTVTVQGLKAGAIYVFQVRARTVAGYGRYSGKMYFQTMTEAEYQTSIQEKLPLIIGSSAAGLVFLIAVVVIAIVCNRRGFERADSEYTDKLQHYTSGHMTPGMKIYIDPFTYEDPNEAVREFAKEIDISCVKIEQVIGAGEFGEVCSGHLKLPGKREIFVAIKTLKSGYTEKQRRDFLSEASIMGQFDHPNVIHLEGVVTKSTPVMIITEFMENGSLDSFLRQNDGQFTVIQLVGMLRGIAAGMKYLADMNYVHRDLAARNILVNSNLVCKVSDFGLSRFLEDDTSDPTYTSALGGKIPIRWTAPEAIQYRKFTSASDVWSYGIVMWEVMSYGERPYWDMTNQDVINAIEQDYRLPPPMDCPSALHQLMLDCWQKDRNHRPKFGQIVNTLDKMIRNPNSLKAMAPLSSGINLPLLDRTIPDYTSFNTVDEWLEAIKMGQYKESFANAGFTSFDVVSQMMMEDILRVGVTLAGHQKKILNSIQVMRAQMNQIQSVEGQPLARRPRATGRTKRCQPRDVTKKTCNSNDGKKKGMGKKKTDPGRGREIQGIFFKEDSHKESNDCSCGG
Sequence of UniProt Q8IY84 (whole entry, looked up): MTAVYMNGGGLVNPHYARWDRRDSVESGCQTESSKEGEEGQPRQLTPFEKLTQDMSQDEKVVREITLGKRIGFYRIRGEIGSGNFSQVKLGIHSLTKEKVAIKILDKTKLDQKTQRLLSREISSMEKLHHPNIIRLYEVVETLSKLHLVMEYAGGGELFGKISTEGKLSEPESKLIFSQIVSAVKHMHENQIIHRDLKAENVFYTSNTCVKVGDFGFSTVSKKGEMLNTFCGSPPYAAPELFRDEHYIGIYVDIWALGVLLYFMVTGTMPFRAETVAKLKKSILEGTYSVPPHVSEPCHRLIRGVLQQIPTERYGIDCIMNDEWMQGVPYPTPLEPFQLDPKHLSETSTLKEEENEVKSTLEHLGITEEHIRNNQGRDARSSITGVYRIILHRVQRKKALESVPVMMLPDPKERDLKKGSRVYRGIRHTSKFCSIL
Sequence of UniProt Q14012 (whole entry, looked up): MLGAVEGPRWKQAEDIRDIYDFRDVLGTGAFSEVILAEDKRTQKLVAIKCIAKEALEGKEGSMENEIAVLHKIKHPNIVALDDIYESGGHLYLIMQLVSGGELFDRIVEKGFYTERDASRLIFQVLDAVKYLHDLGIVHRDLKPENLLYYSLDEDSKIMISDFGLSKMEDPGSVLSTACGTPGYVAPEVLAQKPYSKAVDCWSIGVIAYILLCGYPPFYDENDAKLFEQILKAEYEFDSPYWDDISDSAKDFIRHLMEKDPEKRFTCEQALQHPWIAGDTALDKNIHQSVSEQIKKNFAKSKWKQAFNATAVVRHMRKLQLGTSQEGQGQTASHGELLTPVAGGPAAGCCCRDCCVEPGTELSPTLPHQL
Sequence of UniProt Q92772 (whole entry, looked up): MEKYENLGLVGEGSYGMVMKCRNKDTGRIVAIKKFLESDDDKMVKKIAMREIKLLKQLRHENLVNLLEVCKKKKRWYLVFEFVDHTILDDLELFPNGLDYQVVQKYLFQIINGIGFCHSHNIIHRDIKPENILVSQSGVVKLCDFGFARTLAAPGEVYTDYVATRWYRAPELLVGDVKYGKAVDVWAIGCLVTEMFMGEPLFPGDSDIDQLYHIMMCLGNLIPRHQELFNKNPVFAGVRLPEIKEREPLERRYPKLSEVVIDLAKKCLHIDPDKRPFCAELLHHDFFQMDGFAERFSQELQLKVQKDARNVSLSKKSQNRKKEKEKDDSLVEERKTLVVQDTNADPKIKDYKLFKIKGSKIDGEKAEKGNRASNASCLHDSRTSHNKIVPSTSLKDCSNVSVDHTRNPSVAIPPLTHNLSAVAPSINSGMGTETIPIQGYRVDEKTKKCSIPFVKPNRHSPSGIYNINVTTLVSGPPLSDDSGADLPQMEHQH
Sequence of UniProt Q9H2K8 (whole entry, looked up): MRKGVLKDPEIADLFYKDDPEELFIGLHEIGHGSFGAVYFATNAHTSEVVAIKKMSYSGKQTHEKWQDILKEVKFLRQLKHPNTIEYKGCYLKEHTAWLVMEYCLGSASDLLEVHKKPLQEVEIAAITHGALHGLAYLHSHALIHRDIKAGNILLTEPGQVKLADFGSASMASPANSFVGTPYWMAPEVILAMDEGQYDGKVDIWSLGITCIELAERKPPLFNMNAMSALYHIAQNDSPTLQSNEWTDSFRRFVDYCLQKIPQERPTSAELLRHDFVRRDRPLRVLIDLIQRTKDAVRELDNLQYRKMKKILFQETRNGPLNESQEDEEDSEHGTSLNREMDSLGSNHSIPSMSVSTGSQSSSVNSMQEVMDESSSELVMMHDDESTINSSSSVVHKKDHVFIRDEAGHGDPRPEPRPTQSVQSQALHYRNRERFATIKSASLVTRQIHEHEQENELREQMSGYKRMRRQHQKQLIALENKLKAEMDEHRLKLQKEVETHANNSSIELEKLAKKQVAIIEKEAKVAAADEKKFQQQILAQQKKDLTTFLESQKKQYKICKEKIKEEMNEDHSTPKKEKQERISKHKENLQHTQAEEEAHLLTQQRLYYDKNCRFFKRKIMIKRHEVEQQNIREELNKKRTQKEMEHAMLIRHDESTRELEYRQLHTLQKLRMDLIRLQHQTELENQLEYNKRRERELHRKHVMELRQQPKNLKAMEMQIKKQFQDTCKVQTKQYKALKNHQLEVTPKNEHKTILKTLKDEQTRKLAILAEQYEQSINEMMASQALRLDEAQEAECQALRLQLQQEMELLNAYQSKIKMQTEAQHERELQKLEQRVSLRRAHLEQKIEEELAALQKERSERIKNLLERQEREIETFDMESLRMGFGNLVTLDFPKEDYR
Sequence of UniProt Q16539 (whole entry, looked up): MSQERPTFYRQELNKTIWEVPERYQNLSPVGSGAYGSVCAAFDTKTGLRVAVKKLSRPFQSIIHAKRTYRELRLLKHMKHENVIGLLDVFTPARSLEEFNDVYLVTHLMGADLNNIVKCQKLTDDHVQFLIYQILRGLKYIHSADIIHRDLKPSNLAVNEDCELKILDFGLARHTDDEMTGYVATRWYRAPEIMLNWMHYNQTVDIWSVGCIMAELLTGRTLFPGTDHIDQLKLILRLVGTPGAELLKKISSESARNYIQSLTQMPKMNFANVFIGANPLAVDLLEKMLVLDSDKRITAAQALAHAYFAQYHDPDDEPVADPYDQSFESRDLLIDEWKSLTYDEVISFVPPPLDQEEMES
Sequence of UniProt P78356 (whole entry, looked up): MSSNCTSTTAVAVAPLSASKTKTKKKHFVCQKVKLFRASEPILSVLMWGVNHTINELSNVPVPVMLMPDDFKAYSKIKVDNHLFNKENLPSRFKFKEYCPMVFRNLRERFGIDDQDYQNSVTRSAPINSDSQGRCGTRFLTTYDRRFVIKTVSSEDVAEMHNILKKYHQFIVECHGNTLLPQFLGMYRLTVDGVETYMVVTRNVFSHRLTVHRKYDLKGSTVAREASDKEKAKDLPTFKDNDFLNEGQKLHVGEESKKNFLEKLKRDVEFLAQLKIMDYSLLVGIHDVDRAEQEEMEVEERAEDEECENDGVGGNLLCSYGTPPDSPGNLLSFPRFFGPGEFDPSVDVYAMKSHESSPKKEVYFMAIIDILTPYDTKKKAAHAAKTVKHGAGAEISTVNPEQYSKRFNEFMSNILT

Sample 1 — SMILES: O=c1nc(-c2ccccn2)sc2ccccc12; method: competition with immobilised ligand; tested at: 1 µM; quantity: remaining binding
CDK11A (Homo sapiens, UniProt Q9UQ88); binding: 94%
ERBB2 (Homo sapiens, UniProt P04626); binding: 65%
PRKX (Homo sapiens, UniProt P51817); cell-free assay: 100%
MAPK14 (Homo sapiens, UniProt Q16539); binding: 94%
EPHA1 (Homo sapiens, UniProt P21709); cell-free assay: 100%
PIP4K2B (Homo sapiens, UniProt P78356); cell-free assay: 100%
CLK1 (Homo sapiens, UniProt P49759); binding: 99%
STK25 (Homo sapiens, UniProt O00506); binding: 100%
MINK1 (Homo sapiens, UniProt Q8N4C8); binding: 83%
AKT2 (Homo sapiens, UniProt P31751); binding: 100%
SGK2 (Homo sapiens, UniProt Q9HBY8); binding: 85%
Tyrosine-protein kinase ABL1, non-phosphorylated (ABL1, Homo sapiens, UniProt P00519, Q252H); binding: 96%
MAPK3 (Homo sapiens, UniProt P27361); binding: 80%
EGFR (Homo sapiens, UniProt P00533, L858R/T790M); cell-free assay: 100%
RPS6KB1 (Homo sapiens, UniProt P23443); binding: 100%
RIOK1 (Homo sapiens, UniProt Q9BRS2); binding: 85%
NIM1K (Homo sapiens, UniProt Q8IY84); binding: 100%
EPHB2 (Homo sapiens, UniProt P29323); cell-free assay: 100%
ALK (Homo sapiens, UniProt Q9UM73, C1156Y); cell-free assay: 100%
FLT3 (Homo sapiens, UniProt P36888, K663Q); binding: 100%
TAOK3 (Homo sapiens, UniProt Q9H2K8); binding: 73%
FLT3 (Homo sapiens, UniProt P36888, D835V); binding: 100%
CAMK1 (Homo sapiens, UniProt Q14012); cell-free assay: 92%
MAP3K1 (Homo sapiens, UniProt Q13233); binding: 65%
CDKL2 (Homo sapiens, UniProt Q92772); binding: 76%

Sample 2 — method: ITC; tested at: concentration not given; quantity: binding stoichiometry
Target: Bromodomain-containing protein 4, BD1 (BRD4, Homo sapiens, UniProt O60885)
Cc1cnc(Nc2ccc(OCCN3CCCC3)cc2)nc1Nc1cccc(S(=O)(=O)NC(C)(C)C)c1: 1.03 ± 0.04
CC[C@@H]1C(=O)N(C)c2cnc(Nc3ccc(C(=O)N[C@H]4CC[C@H](N5CCN(CC6CC6)CC5)CC4)cc3OC)nc2N1C(C)C: 1.02 ± 0.04
CC(C)CCN1c2nc(Nc3cc(F)c(O)c(F)c3)ncc2N(C)C(=O)C1C (stereo not shown): 0.965 ± 0.02
Cc1cnc(Nc2ccc(N3CCN(C)CC3)cc2)nc1Nc1cccc(S(=O)(=O)NC(C)(C)C)c1: 1.16 ± 0.01

Sample 3 — effect on: enzyme activity; action: inhibitor; tested at: 0.5 µM; reference: control; quantity: remaining activity
Target: Aurora kinase C (AURKC, Homo sapiens, UniProt Q9UQB9)
Residues (Q9UQB9 1-309): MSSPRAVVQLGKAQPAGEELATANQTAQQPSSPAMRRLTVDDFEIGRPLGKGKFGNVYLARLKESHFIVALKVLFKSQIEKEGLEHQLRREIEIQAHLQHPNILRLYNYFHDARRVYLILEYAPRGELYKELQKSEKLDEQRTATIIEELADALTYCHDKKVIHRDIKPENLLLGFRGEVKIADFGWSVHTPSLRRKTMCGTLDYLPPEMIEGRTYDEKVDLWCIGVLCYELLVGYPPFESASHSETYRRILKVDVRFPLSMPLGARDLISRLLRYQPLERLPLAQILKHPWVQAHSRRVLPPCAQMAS
CC(C)c1nn(-c2c(Cl)cccc2Cl)c2nc(Cc3ccc(OCCO)cc3)[nH]c(=O)c12: 87.6%
CCOc1cc2ncnc(Nc3cccc(Br)c3)c2cc1OCC: 83.7%
COc1ccc(Cl)cc1NC(=O)Nc1cc(C)nc2ccccc12: 99.9%
COc1cc2ncnc(Nc3ccc(OCc4ccccc4)cc3)c2cc1OC: 84.8%
CN(C)CCCn1cc(C2=C(c3c[nH]c4ccccc34)C(=O)NC2=O)c2ccccc21: 84.7%
C[S+]([O-])c1ccc(-c2nc(-c3ccncc3)c(-c3ccc(F)cc3)[nH]2)cc1 (stereo not shown): 98.5%
Cc1ccc(NC(=O)c2ccc(CN3CCN(C)CC3)cc2)cc1Nc1nccc(-c2cccnc2)n1: 119%
Cn1cc(/C=C2\C(=O)Nc3ccc(S(N)(=O)=O)cc32)c2ccccc21: 37.1%
Nc1[nH]nc2nnc(-c3c(-c4ccccc4)nn4ccccc34)cc12: 96.4%
CCC(=O)Nc1ccc2ncnc(Nc3cccc(Br)c3)c2c1: 102%
O=C(Nc1ccc(Cl)cc1)c1ccccc1NCc1ccncc1: 93.4%
O=c1cc(N2CCOCC2)oc2c1ccc1ccccc12: 107%
COc1ccc(-c2cnc3c(-c4ccsc4)cnn3c2)cc1: 75.3%
Cn1cnc2cc3c(Nc4cccc(Br)c4)ncnc3cc21: 96.5%
COc1cc2ncnc(N3CCN(C(=O)Nc4ccc(Oc5ccccc5)cc4)CC3)c2cc1OC: 90.3%
CCN1/C(=C/C(C)=O)Sc2ccc(OC)cc21: 94.8%
O=C1NC(=O)/C(=C/c2ccc3nccnc3c2)S1: 95.6%
Cc1nc(Nc2ncc(C(=O)Nc3c(C)cccc3Cl)s2)cc(N2CCN(CCO)CC2)n1: 84.8%
CC(C)[C@H](CO)Nc1nc(Nc2cccc(Cl)c2)c2ncn(C(C)C)c2n1: 93.2%
COc1cc2ncc(-c3ccccc3)nc2cc1OC: 90.1%
CC(=O)O/N=C1/C(c2c(O)[nH]c3cc(Br)ccc23)=Nc2ccccc21: 86%

Sample 4 — method: KINOMEscan; tested at: 10 µM; reference: DMSO control; reading: lower = stronger binding; quantity: binding
SMILES: COc1cc(C(=O)N2CCC(N3CCN(C)CC3)CC2)ccc1Nc1ncc2c(n1)N(C)c1ccccc1C(=O)N2C
CSNK1E: 95%
PIK3CD: 62%
ROS1: 12%
ERBB2: 100%
PKMYT1: 80%
TLK1: 100%
CSF1R: 98%
FGR: 84%
PKN2: 95%
DMPK2: 100%
FGFR3: 80%
MEK2: 99%
EPHA8: 80%
LCK: 100%
